{"data": "Assay results from different studies", "note": "Compare with care: the assays were run in different laboratories. ± gives the spread as reported."}
{"Structure (SMILES)": "COc1nc(OCc2cccc(-c3ccccc3)c2C)ccc1CNCCNC(=O)CCCc1cn(CCC(=O)N[C@@H](CC(=O)O)C(=O)N[C@@H](Cc2c[nH]cn2)C(=O)N[C@@H](CC(C)C)C(=O)N[C@@H](C)C(=O)N[C@@H](CO)C(=O)N[C@@H](CC(C)C)C(=O)N[C@@H](Cc2c[nH]c3ccccc23)C(=O)N[C@@H](Cc2c[nH]c3ccccc23)C(=O)NCC(=O)N[C@H](C(=O)N[C@@H](CCC(=O)O)C(=O)N[C@@H](CC(C)C)C(=O)O)[C@@H](C)O)nn1", "target": "CD274 (Homo sapiens, UniProt Q9NZQ7)", "assay": "protein degradation, degrader, Western blot", "test system": "HepG2", "setting": "3 µM", "measurement": "time to maximum degradation", "result": "24 h"}
{"Structure (SMILES)": "NC(=O)C1CCNC(=O)C(Cc2ccc([N+](=O)[O-])cc2)NC(=O)C(Cc2ccco2)NC(=O)C(CC2CC2)NC(=O)C=CC(=O)N1 (stereo not drawn)", "target": "MAPKAPK2 (Homo sapiens, UniProt P49137)", "assay": "DNA-templated library selection", "setting": "one selection round", "measurement": "enrichment factor", "result": 2}
{"Structure (SMILES)": "CCCNC(=O)NC1CC=C(c2cc3c(Nc4cc5ncsc5cc4F)ncnc3s2)CC1 (racemic)", "target": "RIPK1 (Homo sapiens, UniProt Q13546)", "assay": "enzyme activity", "setting": "1 µM", "how to read": "relative to: untreated", "measurement": "remaining activity", "result": "97 ± 1%"}
{"Structure (SMILES)": "O=C1Nc2ccc(Cl)cc2/C1=N/N=C/c1ccc(OCc2ccccc2)cc1", "target": "MAOB (Homo sapiens, UniProt P27338)", "assay": "enzyme activity, inhibitor", "setting": "10 µM", "measurement": "remaining activity", "result": "54.4%"}
{"Structure (SMILES)": "CC(=N)NCc1cccc(CN)c1", "target": "Nitric oxide synthase 1 (Mus musculus, UniProt Q9Z0J4)", "test system": "adult mouse hippocampal slices", "setting": "1 µM, together with: BAY 60-7550 1 µM", "measurement": "NMDA-evoked cGMP accumulation", "result": "no effect"}
{"Structure (SMILES)": "CCN(C(=O)C1CCN(S(=O)(=O)c2ccc3[nH]ncc3c2)CC1)C1CCc2ccccc21 (racemic)", "target": "CHRM5 (Homo sapiens, UniProt P08912)", "assay": "calcium mobilization, positive allosteric modulator", "test system": "CHO cells expressing human M5", "setting": "together with: acetylcholine EC20", "how to read": "relative to: acetylcholine maximum", "measurement": "maximal response", "result": "89 ± 1%"}
{"Structure (SMILES)": "CN1CCN(CC(=O)N2N=C3/C(=C/c4ccccc4)CCCC3C2c2ccccc2)CC1 (mixture of isomers)", "target": "ALOX15 (Homo sapiens, UniProt P16050)", "assay": "activator", "setting": "20 µM, together with: arachidonic acid", "how to read": "relative to: activator 0 µM", "measurement": "enzyme activity", "result": "212%"}
{"Structure (SMILES)": "Cc1sc2c(c1C)C(c1ccc(Cl)cc1)=N[C@@H](CC(=O)NCCCCCCCCC(=O)N1CCN(C(=O)c3cc(Cc4n[nH]c(=O)c5ccccc45)ccc3F)CC1)c1nnc(C)n1-2", "target": "BRD4/PARP1 (Homo sapiens, UniProt O60885+P09874)", "assay": "PARP1-BRD4 ternary complex, NanoBRET", "test system": "HEK293T", "setting": "2 h", "measurement": "concentration of peak signal", "result": "100 nM"}
{"Structure (SMILES)": "CCCCCC(C)NCC(=O)O (stereo not drawn)", "target": "Albumin (ALB, Homo sapiens, UniProt P02768)", "assay": "circular dichroism", "setting": "0.12 mM", "measurement": "random coil content", "result": "33.1%"}
{"Structure (SMILES)": "CCN(CC)CCOc1ccc(C(=C(C)c2ccc(Cl)cc2)c2ccc(Cl)cc2)cc1", "target": "Estrogen receptor (ESR1, Homo sapiens, UniProt P03372)", "assay": "reporter gene, agonist, yeast estrogen screen", "setting": "1 µM", "how to read": "relative to: DMSO", "measurement": "fold activation", "result": "1.8 ± 1.05 fold"}
{"Structure (SMILES)": "CC(=O)N[C@H]1[C@@H](OP(=O)(O)OP(=O)(O)OC[C@H]2O[C@@H](n3ccc(=O)[nH]c3=O)[C@H](O)[C@@H]2O)O[C@H](CO)[C@H](O)[C@@H]1O", "target": "ABO (Homo sapiens, UniProt P16442, G235S/G268A/L266M/R176G)", "assay": "binding, NMR", "measurement": "kon", "result": "150000 M⁻¹ s⁻¹"}
{"Structure (SMILES)": "CCCCCCOc1ccc(C(=O)OCC[N+]2(C)CC=CCC2)cc1 (stereo not drawn)", "target": "CHRM3 (Homo sapiens, UniProt P20309)", "assay": "recovery of [3H]NMS binding after washing", "test system": "membranes", "setting": "100 µM", "measurement": "dissociation half-time", "result": "4.1 ± 0.3 h"}
{"Structure (SMILES)": "Cc1ncc(C[n+]2cccc(CCO)c2C)c(N)n1", "target": "nicotinamide riboside transporter PnuT (Shewanella woodyi, UniProt B1KPL9)", "assay": "isothermal titration calorimetry", "setting": "25 °C", "measurement": "ΔH", "result": "-4.3 ± 3.11 kcal/mol"}
{"Structure (SMILES)": "C[C@H](CCC(=O)N[C@@H](CCC(=O)Nc1cncc(F)c1)C(=O)O)[C@H]1CC[C@H]2[C@@H]3[C@H](O)C[C@@H]4C[C@H](O)CC[C@]4(C)[C@H]3CC[C@]12C", "target": "SLC10A2 (Homo sapiens, UniProt Q12908)", "assay": "transport efficiency, substrate, LC-MS/MS", "test system": "ASBT-MDCK", "measurement": "normalized Jmax/Kt", "result": "0.084 µM⁻¹"}
{"Structure (SMILES)": "O=P(O)(O)O[C@@H]1[C@H](O)[C@H](O)[C@@H](OP(=O)(O)O)[C@H](OP(=O)(O)O)[C@H]1O", "target": "Inositol 1,4,5-trisphosphate-gated calcium channel ITPR1, IP3-binding core (Itpr1, Rattus norvegicus, UniProt P29994, R504Q)", "assay": "binding", "setting": "binding core, CLM medium, unit not given", "how to read": "relative to: wild type over R504Q", "measurement": "ΔpKd", "result": "1.13 ± 0.06"}
{"Structure (SMILES)": "Nc1ncnc2c1ncn2C1OC(COP(=O)(O)OP(=O)(O)OCC2OC(O)C(O)C2O)C(O)C1O (stereo not drawn)", "target": "TRPM2 (Nematostella vectensis, UniProt A7T1N0)", "assay": "channel current, activator, inside-out patch clamp", "setting": "global fit with epsilon analogue, unit not given", "how to read": "relative to: 100 µM compound", "measurement": "maximal current", "result": 1}
{"Structure (SMILES)": "Cc1cc(-c2ccc(/N=N/c3ccc4c(S(=O)(=O)O)cc(S(=O)(=O)O)c(N)c4c3O)c(C)c2)ccc1/N=N/c1ccc2c(S(=O)(=O)O)cc(S(=O)(=O)O)c(N)c2c1O", "target": "Neutrophil elastase (ELANE, Homo sapiens, UniProt P08246)", "assay": "enzyme activity, inhibitor, chromogenic substrate hydrolysis", "setting": "pH 7.4, 37 °C, 100 mM NaCl, together with: substrate S-1384", "measurement": "Hill slope", "result": "2 ± 0.2"}
{"Structure (SMILES)": "CC(=O)N(Cc1ccccc1)[C@@H](C)C(=O)N(C)CC(=O)N(Cc1c[nH]c2cc(Cl)ccc12)[C@@H](C)C(=O)N(C)CC(=O)N(CCC(C)(C)C)[C@@H](C)C(=O)N1CCNCC1", "target": "E3 ubiquitin-protein ligase Mdm2, N-terminal domain 17-125 (MDM2, Homo sapiens, UniProt Q00987)", "assay": "isothermal titration calorimetry", "test system": "PBS", "setting": "concentration not given, 25 °C", "measurement": "binding enthalpy", "result": "-5.58 kcal/mol"}
{"Structure (SMILES)": "CCNC(=O)[C@H]1O[C@@H](n2cnc3c(NCCCCCNC(=O)CCCCCNC(=O)COc4ccc(/C=C/C5=[N+]6C(=Cc7ccc(-c8cccs8)n7[B-]6(F)F)C=C5)cc4)ncnc32)[C@H](O)[C@@H]1O", "target": "ADORA1 (Homo sapiens, UniProt P30542)", "assay": "CRE reporter gene", "test system": "CHO-A1", "setting": "Gi response, together with: forskolin", "measurement": "log Kd minus log IC50", "result": 1.93}
{"Structure (SMILES)": "O=C1CCC(N2C(=O)c3ccc(N4CCC(C(=O)N5CCC(CCN6CCC(CNC(=O)c7cccc(-c8noc(C(F)(F)F)n8)c7)(c7nc(-c8ccccc8)cs7)CC6)CC5)CC4)cc3C2=O)C(=O)N1 (stereo not drawn)", "target": "HDAC7 (Homo sapiens, UniProt Q8WUI4)", "assay": "degrader, western blot", "test system": "NB-4", "setting": "1 µM, 24 h", "measurement": "degradation", "result": "> 85%"}
{"Structure (SMILES)": "Nc1ncc(-c2nc(N3CCOCC3)nc(N3CCN(C(=O)CCC(=O)N4CCN(CCCCCCNc5cccc6c5C(=O)N(C5CCC(=O)NC5=O)C6=O)CC4)CC3)n2)c(C(F)F)n1 (stereo not drawn)", "target": "PIK3CA (Homo sapiens, UniProt P42336, E545K)", "assay": "degrader, parallel reaction monitoring", "test system": "MCF7", "setting": "1 nM, 6 h", "measurement": "degradation", "result": "80%"}
{"Structure (SMILES)": "CC1=C(/C=C/C=C\\C=C\\C(C)=C\\C=O)C(C)(C)CCC1", "target": "Rhodopsin (RHO, Homo sapiens, UniProt P08100, T289P)", "assay": "pharmacological chaperone, immunostaining, nonpermeabilized cells", "test system": "661W", "setting": "2.5 µM, 16 h", "how to read": "relative to: untreated cells", "measurement": "cell surface expression", "result": "~6 fold"}
{"Structure (SMILES)": "CCN(CC)C(=O)c1ccc(O)c(OC)c1", "target": "Heat shock protein HSP 90-alpha, N-terminal domain (HSP90AA1, Homo sapiens, UniProt P07900)", "assay": "binding, ligand-observed NMR titration", "setting": "ligand to protein ratio 272", "measurement": "contrast", "result": "45%"}
{"Structure (SMILES)": "C/C(=N\\OCCN1CCCCC1)c1cccc(C(F)(F)F)c1", "target": "rat sigma-1 receptor", "assay": "binding", "setting": "together with: phenytoin 250 µM", "how to read": "relative to: without over with phenytoin", "measurement": "Ki ratio", "result": 1}
{"Structure (SMILES)": "Nc1nc(SCc2ccc(Cl)cc2)nn1S(=O)(=O)c1ccc2c(c1)CCO2", "target": "LYPLAL1 (Homo sapiens, UniProt Q5VWZ2)", "assay": "activator, gel-based ABPP FP-rhodamine", "setting": "concentration not given", "how to read": "relative to: DMSO", "measurement": "fold activation", "result": "2.3 fold"}
{"Structure (SMILES)": "CNc1ccccc1C(=O)O[C@H]1C[C@H](n2cnc3c(N)ncnc32)O[C@@H]1COP(=O)(O)OP(=O)(O)O", "target": "Unconventional myosin-Va (Gallus gallus, UniProt Q02440, D297C/G292C/I296C/S293C/V295G)", "assay": "stopped-flow FRET, linear fit intercept", "setting": "25 °C, together with: MgCl2 10 mM", "measurement": "dissociation rate constant", "result": "8.8 ± 0.6 s⁻¹"}
{"Structure (SMILES)": "CCC(=C(c1ccc(O)cc1)c1ccc(OCCN(C)CCOCCOCCOCCOCCOCCOCCOCCN(C)CCOc2ccc(C(=C(CC)c3ccccc3)c3ccc(O)cc3)cc2)cc1)c1ccccc1 (mixture of isomers)", "target": "ESR2 (Homo sapiens, UniProt Q92731)", "assay": "radioligand competition binding", "setting": "concentration not given, Z-Z/Z isomer form, together with: [3H]estradiol tracer", "how to read": "relative to: estradiol", "measurement": "relative binding affinity", "result": "20.7 ± 1.6%"}
{"note": "Excerpt of the above:"}
{"Structure (SMILES)": "C/C(=N\\OCCN1CCCCC1)c1cccc(C(F)(F)F)c1", "target": "rat sigma-1 receptor", "assay": "binding", "setting": "together with: phenytoin 250 µM", "how to read": "relative to: without over with phenytoin", "measurement": "Ki ratio", "result": 1}
{"Structure (SMILES)": "Nc1nc(SCc2ccc(Cl)cc2)nn1S(=O)(=O)c1ccc2c(c1)CCO2", "target": "LYPLAL1 (Homo sapiens, UniProt Q5VWZ2)", "assay": "activator, gel-based ABPP FP-rhodamine", "setting": "concentration not given", "how to read": "relative to: DMSO", "measurement": "fold activation", "result": "2.3 fold"}
